Experimental data from different studies.
Each numbered part is a random draw from the data of one study; scales do not carry over between parts. Positions count from the first letter of the parent shown.

Block 1
Target: Sal-like protein 4, full length isoform A (SALL4, Homo sapiens, UniProt Q9UJQ4, residues 1-1053)
Sequence of UniProt Q9UJQ4 (whole entry, looked up): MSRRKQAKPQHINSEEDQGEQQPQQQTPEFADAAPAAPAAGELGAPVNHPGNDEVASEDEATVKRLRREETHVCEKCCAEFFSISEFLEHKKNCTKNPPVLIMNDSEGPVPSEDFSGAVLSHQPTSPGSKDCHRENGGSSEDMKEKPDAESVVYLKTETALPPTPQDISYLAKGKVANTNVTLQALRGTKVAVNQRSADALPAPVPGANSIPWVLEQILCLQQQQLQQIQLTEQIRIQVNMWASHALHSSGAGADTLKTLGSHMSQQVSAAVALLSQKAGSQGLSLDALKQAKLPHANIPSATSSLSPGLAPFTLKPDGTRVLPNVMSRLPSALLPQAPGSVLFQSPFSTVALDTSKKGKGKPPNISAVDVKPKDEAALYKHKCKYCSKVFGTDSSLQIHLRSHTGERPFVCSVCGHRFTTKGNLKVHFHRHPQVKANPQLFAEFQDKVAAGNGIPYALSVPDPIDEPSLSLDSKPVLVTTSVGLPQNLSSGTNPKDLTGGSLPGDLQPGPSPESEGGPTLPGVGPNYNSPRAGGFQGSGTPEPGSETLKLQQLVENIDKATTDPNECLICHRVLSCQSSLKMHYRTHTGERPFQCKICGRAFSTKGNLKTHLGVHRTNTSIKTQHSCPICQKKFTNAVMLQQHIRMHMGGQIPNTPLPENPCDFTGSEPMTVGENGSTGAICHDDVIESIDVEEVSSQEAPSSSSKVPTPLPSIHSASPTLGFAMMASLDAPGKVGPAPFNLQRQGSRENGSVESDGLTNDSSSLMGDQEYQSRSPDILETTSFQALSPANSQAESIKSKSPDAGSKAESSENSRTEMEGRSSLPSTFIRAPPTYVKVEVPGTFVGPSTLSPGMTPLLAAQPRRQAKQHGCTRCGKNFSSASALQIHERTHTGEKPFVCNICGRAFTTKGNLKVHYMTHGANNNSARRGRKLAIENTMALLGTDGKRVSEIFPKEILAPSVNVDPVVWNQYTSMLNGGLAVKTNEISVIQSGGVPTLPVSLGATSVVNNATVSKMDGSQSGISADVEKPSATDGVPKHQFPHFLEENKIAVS
Technique: universal PBM
Molecule type: double-stranded DNA, one strand shown
Sample: in vitro
Concentration: 600 nM
Notes: 8-mer, flanks averaged, mean of replicates
Reading: higher = stronger binding
Quantity: E-score
CTGGTAAA: 0.0272
GACCTGAA: -0.117
CAGAACGC: -0.246
CCCGGGGA: -0.334
GCTTTGCC: -0.173
AGGCCCCT: -0.399
ATAATGCG: 0.278
CCTGGCAC: -0.181
AGGAATCG: -0.153
AAAACTCC: -0.0566
AGTCGAAA: -0.112
CGACTACC: -0.221
AAGACAAA: 0.0786
GATCAGCC: -0.292
GTTACGAA: 0.179
AGACGGTC: -0.223
CTCCCAGC: -0.266
TGATCCAA: 0.171
GCTTCTCC: -0.168

Block 2
Target: RING finger protein unkempt homolog, zinc fingers 1-6, GST-SBP tag (UNK, Homo sapiens, UniProt Q9C0B0, residues 30-357)
Technique: RNA Bind-n-Seq
Molecule type: RNA
Sample: in vitro
Concentration: not given
Notes: RNA with constant flanks, human and mouse sites, ends assumed
Baseline: input RNA pool
Reading: higher = stronger binding
Quantity: bound/input enrichment
Constant ends, left off below: GGGAGUUCUACAGUCCGACGAUC … CAACAGAGGAUUGAGCAUCA
Residues (chain): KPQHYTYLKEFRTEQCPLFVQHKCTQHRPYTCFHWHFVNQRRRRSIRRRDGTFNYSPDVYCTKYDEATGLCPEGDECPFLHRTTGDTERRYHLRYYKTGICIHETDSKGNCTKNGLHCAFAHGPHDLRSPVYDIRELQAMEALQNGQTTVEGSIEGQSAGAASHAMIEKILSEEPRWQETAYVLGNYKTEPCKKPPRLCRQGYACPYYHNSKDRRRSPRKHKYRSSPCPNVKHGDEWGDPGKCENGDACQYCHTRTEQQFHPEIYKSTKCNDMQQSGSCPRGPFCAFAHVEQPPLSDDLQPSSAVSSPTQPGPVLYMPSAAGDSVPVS
UCUUGUUUGGAGAGACAUGGGGCAUGUGUCUGCCAAUAGCCAGUUGUUCUCAGUGUGCACUAUGUAGGUCCCCAUCCACUACUUGACCACCUUUAUCAUUUACGGGGAUUUACAUAGAUU: 0.256 ratio
AUAUAUUGUAACAGAAUGUAUAAAUAUUUUUGAUAAAACAGUCUAUAUUUUAUAAAAAGUUAUUAUAACACUAAAGCUGUACCUCAAAAGUCUCACAAAUAAUUUGAUCAAAUGCUCUAC: 0.214 ratio
AAUGCUGUCCUCAAUGCUGGAGCUGGAGAGGAUAAUCUGGAGUUCCGCCUACAUCUACGGUAUGAAUUCCUGAUGCUGGGUAUACAGCCUGUGAUUGACAAGCUCCGGCAACAUGAAAAU: 0.0997 ratio
CCUCCAGAGUUCGGAUUUCCUGAGAAGAUAACAGUGAAACAGCGUUAUCGCCUACUUGGAAAUAGUCUCAACGUGCAUGUAGUAGCUAAACUAAUCAAAAUCUUAUAUGAAUAAUUUUGA: 1.4 ratio
CUUUACCAGAAAGACUUCCUGCGCAUUGCAGGUCUGUGUCAGGACACUGCUCAGAGUUACACCUUUGGAUGUGGCCAUGAACUGGAUGAGGAAGGCCUCUAUUGCAACAGUUGCUUGGCC: 0.0887 ratio
ACCUUCCUUGUAUUUUCCAAGGCUGAACUUGGUGCUCUUCCUGAUGAUUUCAUUGACAGUUUAGAAAAGACAGAUGAUGACAAGUAUAAAAUUACCUUAAAAUAUCCACACUAUUUCCCU: 1.04 ratio
UGGUGGAUUGGAAUCAAGUGGGUGGCUGGAGGCCAAGCGUUUUUCGGGGCCCAGAUGAACUCUUUCAUCCACGUGAUCAUGUACUCCUACUAUGGGCUGACUGCGUUCGGCCCCUGGAUC: 0.0657 ratio
GUCUCAUCUGUAUGCAUCUUAUGCAUGUGAUUCAAUAGACUAGAUCGAUUCUGUGUGGUUUAUCAUAGUAGAUACACAAACCAGUCUUUAUUUUUUACUUAAGAAAAUAUAUAAGUGGAA: 0.468 ratio
UACACUACAUUUUCUUGGUUAUGUUUGGCACAUGAAUAACAGACACAUGUGGUGUGCUCAUUUUUUAAUUUUGCCAAGCAUAUUUGUUGAUGCUUCUUGUUGUCGUUGUUACUUUGAAAA: 0.426 ratio
ACAGACAUCCGCUGCCCCUUUGAAAAACGAAGAGAUGCAGCAUGCGUGUUUUGGGACAAUGUAGUAUACAUUUUGGGAGGCUCUCAGCUUUUCCCAAUAAAGCGAAUGGACUGCUAUAAU: 0.119 ratio
GCCAAUAUCAAACGAGAACAGGGAAACAUUGAAGAGGCAGUUCGCUUGUAUCGUAAAGCAUUAGAAGUCUUCCCAGAGUUUGCUGCUGCCCAUUCAAAUUUAGCAAGUGUACUGCAGCAG: 1.14 ratio

Block 3
Target: Prothrombin, mature alpha-thrombin (F2, Homo sapiens, UniProt P00734)
Technique: aptamer microarray, sandwich
Molecule type: DNA with 2'F-ANA
Sample: in vitro
Concentration: 200 nM
Notes: whole 15-mer aptamer, many near background
Together with: Cy3 exosite-II aptamer, 400 nM
Reading: higher = stronger binding
Quantity: mean fluorescence intensity
Sequence: GGTTGGTGTGGTTGG
2'F-ANA at 2 6 9 10 12 13 14: 86.5 a.u.
2'F-ANA at 1 2 6 14 15: 56.5 a.u.
2'F-ANA at 1 2 3 4 5 8 11 13: 79.4 a.u.
2'F-ANA at 3 5 9 11 12 14: 60.9 a.u.
2'F-ANA at 1 3 4 5 8 9: 65.5 a.u.
2'F-ANA at 1 2 3 5 7 13 14 15: 96.8 a.u.
2'F-ANA at 3 5 6 8 9 14: 62.4 a.u.
2'F-ANA at 5 6 8 11 12 14 15: 69.7 a.u.
2'F-ANA at 3 6 10 11 12 13: 520 a.u.
2'F-ANA at 5 7 13: 165 a.u.
2'F-ANA at 1 2 4 6 7 8 9 11: 101 a.u.
2'F-ANA at 2 4 5 9 10 11 14 15: 61.6 a.u.
2'F-ANA at 1 7 10 13 14 15: 45.9 a.u.
2'F-ANA at 1 6 12 13: 294 a.u.
2'F-ANA at 7 11 12 14: 259 a.u.
2'F-ANA at 3 5 6 7 8 10 11 12: 62.1 a.u.
2'F-ANA at 3 4 5 6 8 15: 97.3 a.u.
2'F-ANA at 2 4 6 11 12 13: 347 a.u.
2'F-ANA at 1 3 8 9 11 13: 287 a.u.
2'F-ANA at 2 3 8 9 10 12 14: 368 a.u.

Block 4
Target: TEF, bZIP domain (human)
Technique: DHFR protein complementation
Sample: yeast
Notes: single substitutions, most at no-binding floor
Baseline: wild-type JUN-FOS pair
Reading: higher = stronger binding
Quantity: binding fitness
Starting sequence: JUN, bZIP domain (human); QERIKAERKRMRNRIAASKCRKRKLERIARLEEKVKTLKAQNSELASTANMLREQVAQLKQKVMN; partner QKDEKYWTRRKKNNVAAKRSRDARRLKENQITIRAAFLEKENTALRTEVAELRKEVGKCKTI
L52K: -1.56 natural log
V35K: -1.21 natural log
A46R: -1.38 natural log
L45W: -1.46 natural log
L52E: -1.49 natural log
M51S: -1.3 natural log
A49Y: -1.5 natural log
L38N: -1.58 natural log
A46V: -1.5 natural log
V56H: -1.5 natural log
L31D: -1.56 natural log
A40R: -1.44 natural log
E32R: -1.38 natural log
N42F: -1.57 natural log
K39N: -1.49 natural log
E44N: -1.27 natural log
A49M: -1.51 natural log
M51L: -1.51 natural log
A40T: -1.29 natural log
I28N: -1.31 natural log
K36A: -1.48 natural log

Block 5
Target: Fragile X messenger ribonucleoprotein 1, C-terminal low-complexity region (Fmr1, Mus musculus, UniProt P35922)
Technique: RNA Bind-n-Seq
Molecule type: RNA
Sample: in vitro
Concentration: 200 nM
Notes: whole 134-nt RNA, ends assumed
Together with: 150 mM LiCl
Baseline: input library
Reading: higher = stronger binding
Quantity: log2 enrichment
Each molecule: 7-deaza-guanosine replaces G
Constant ends, left off below: GGGAGUUCUACAGUCCGACGAUC … UGGAAUUCUCGGGUGUCAAGG
AAGUCCUGUGCUACACAUCGUAUGUACCGAAUCGGUUUUUUUGGAGGAAAAAAAGGAAAGUAUUAUGUUACGCCGUUCGGAUCUGCACUU: -2.31
UCCUCAAGUCCUGUGCUACACAUCGUAUGUACCGAAUCGGUGGUGGGUGGGGAAAGUAUUAUGUUACGCCGUUCGGAUCUGCACUUCCAG: 0.886
CACAGACAACACGCACCCACACAGACACAGAGGGAAGGGGUUGGGAUGGGGACAGGGUGCACAGCAGGGCGGGGUAGGACCCCAGCUCCU: -0.783
AGUCCUGUGCUACACAUCGUAUGUACCGAAUCGGGGCCCCGGGCCCCGGCCCCGGGGAAAGUAUUAUGUUACGCCGUUCGGAUCUGCACU: -2.97
UAACUUUAGAGGCGGAUCUGAUGGAUAUGGCAGUGGACGUGGAUUUGGGGAUGGCUAUAAUGGGUAUGGAGGAGGACCUGGAGGUGGCAA: 0.124
GCAGGAAGUAAAAACAAAUGGAAAUGCUUCGGAUAGUGGCAGGGGUGGGGGUUGCUAAGGAAAGGGUGGUAUGGGAGUGGGUAAAGAGUU: 1.51
UUGCCACUCUAAAUUCAGAAGAGGAGAGCGACCCUCCAACCUACAAGGAUGCCUUCCCUCCACUUCCUGAGAAAGCUGCUUGCCUGGAAA: 0.0344
CUGUGCUACACAUCGUAUGUACCGAAUCGGGGUUUUUGGGGAAAAAGGGGUUUUUUUGGGGAAAGUAUUAUGUUACGCCGUUCGGAUCUG: -1.29
UGGCCCUGGUGGCAUGCGGGGAGGAAGAGGUGGCCUGAUGGAUCGUGGUGGUCCCGGUGGAAUGUUCAGAGGUGGCCGUGGUGGAGACAG: 1.17
UCCUGUGCUACACAUCGUAUGUACCGAAUCGGGUUUUUGGGAAAAAAAGGGUUUUUGGGAAAGUAUUAUGUUACGCCGUUCGGAUCUGCA: -2.42
GCAGGAAGUAAAACCAAAUGGAAAUGCUUCGGAUAGUGGCAGGGGUGGGGGUUGCUAAGGAAAGGGUGGGAUGGGAGUGGGUAAAGAGUU: 1.44

Block 6
Target: ABI1, truncated, D143A, DHFR fusion (Arabidopsis thaliana)
Technique: DHFR PCA, deep sequencing
Sample: yeast
Notes: methotrexate growth selection, single substitutions
Together with: (+)-ABA 0.0091 µM
Baseline: wild-type fitted maximum
Reading: higher = stronger binding
Quantity: relative binding score
Starting sequence: PYL1, truncated, DHFR fusion (Arabidopsis thaliana); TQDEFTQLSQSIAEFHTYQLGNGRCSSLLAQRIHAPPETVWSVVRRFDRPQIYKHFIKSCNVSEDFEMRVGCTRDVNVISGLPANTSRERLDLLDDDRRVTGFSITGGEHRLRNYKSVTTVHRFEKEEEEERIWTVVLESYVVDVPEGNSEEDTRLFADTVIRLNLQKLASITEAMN; partner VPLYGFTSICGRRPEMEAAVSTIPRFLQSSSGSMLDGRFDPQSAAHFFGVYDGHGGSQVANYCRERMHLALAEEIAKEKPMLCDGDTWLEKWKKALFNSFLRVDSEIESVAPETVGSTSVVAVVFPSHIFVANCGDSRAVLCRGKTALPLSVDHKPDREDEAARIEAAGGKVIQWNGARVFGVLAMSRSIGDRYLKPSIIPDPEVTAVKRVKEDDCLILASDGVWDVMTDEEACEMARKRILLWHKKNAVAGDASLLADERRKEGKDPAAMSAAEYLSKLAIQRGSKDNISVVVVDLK
R24Q: 63.8%
F56S: -1.26%
Q167H: 5.54%
T106R: -1.29%
T160L: 4.48%
F56K: -8.53%
R46F: -6.67%
I133K: 13.7%
K168S: 14.1%
R46W: -0.402%
I162D: -1.81%
V43I: 47.2%
R123I: -6.34%
P37G: -4.97%
G108Q: -5.82%
L82E: 8.66%

Block 7
Target: CCNB1, cyclin fold, Cln2 fusion (human)
Technique: yeast growth competition, sequencing
Sample: yeast
Notes: weak parent motif
Baseline: not given
Reading: higher = stronger binding
Quantity: normalised enrichment score
Starting sequence: ITGB3BP docking peptide (human); MPVKRSLKLDGLL
MPVKRSLALDGLL [K8A]: 0.78
MPVKKSLKFDGLL [R5K L9F]: 0.119
MPVKRSLKLDGLA [L13A]: 0.838
MPVARSLKLDGLL [K4A]: 0.461
MPVKASLKLDGLL [R5A]: -0.137
MPVKRALKLDGLL [S6A]: 1.13
MPVKASAKLDGLL [R5A L7A]: 0.152
MAVKRSLKLDGLL [P2A]: 0.683
MPVKRSLKFDGLL [L9F]: 0.34
MPVKRSLKLDALL [G11A]: 0.509

Excerpt of the above (block 4):
V35K: -1.21 natural log
A46R: -1.38 natural log
L45W: -1.46 natural log
L52E: -1.49 natural log
M51S: -1.3 natural log
A49Y: -1.5 natural log
L38N: -1.58 natural log
A46V: -1.5 natural log
V56H: -1.5 natural log
L31D: -1.56 natural log
A40R: -1.44 natural log
E32R: -1.38 natural log
N42F: -1.57 natural log
K39N: -1.49 natural log
E44N: -1.27 natural log
A49M: -1.51 natural log
